Results pooled from the literature.
Lines come from different studies, so protocols differ. “And” joins repeats or separate records; there may be more than shown.
Target: Ribosomal protein S6 kinase beta-1 (RPS6KB1, Homo sapiens, UniProt P23443)
Sequence of UniProt P23443 (whole entry, looked up): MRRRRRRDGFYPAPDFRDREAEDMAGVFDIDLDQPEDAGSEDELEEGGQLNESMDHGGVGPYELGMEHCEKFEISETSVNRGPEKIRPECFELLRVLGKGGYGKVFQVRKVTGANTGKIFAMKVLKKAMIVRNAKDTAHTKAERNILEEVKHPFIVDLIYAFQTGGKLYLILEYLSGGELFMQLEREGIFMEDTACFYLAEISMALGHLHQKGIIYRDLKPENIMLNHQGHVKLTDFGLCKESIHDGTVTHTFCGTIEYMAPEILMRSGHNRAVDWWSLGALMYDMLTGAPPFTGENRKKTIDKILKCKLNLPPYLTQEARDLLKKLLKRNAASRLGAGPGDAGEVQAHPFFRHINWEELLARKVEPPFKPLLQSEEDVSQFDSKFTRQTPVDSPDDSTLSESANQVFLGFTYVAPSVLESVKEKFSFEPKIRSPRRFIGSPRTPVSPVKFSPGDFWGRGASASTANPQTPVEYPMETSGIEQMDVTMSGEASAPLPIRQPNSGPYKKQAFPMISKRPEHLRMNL

Structure (SMILES) | test | conditions | how to read | measurement | value
Cc1cccc(-c2ccc3nc(NC(=O)C4CCCCC4)nn3c2)c1 | enzyme activity, Dundee kinase panel | 10 µM | – | remaining activity | 86%
C=CC(=O)N1CCc2ccc(-n3c(=O)ccc4cnc5ccc(-c6cnn(C)c6)cc5c43)cc21 | KINOMEscan | 1 µM | relative to: DMSO control | remaining binding | 95%
C=CC(=O)Nc1cccc(-c2cnc3[nH]cc(C(=O)NC(C)(C)C)c3n2)c1 | kinase activity | 0.1 µM | – | inhibition | 3% and 2%
Cc1cccc(O[C@H]2CCC[C@@H](C(C)CNCc3ccncc3)C2)c1 (relative stereo) | enzyme activity, inhibitor | 10 µM | – | inhibition | -1%
CCN1CCN(Cc2ccc(C(=O)Nc3ccc(C)c(NCc4cnc5[nH]ccc5c4OC)c3)cc2C(F)(F)F)CC1 | binding, competition with immobilised ligand | 1 µM | – | remaining binding | 44%
O=c1c(-c2ccc(Cl)c(CN3CCOCC3)c2)coc2cc(O)ccc12 | enzyme activity, inhibitor | 1 µM | – | remaining activity | 102%
NC(=O)[C@@H](O)C[C@H]1CCc2sc3ncnc(O[C@H]4CC[C@H](N5CCOCC5)CC4)c3c21 | enzyme activity, inhibitor | 10 µM | – | inhibition | 5%
Cc1ccc(-c2c(/C=C(\C#N)C(=O)NC(C)C)n(CCCO)c3ncnc(N)c23)cc1 | cell-free assay, competition with immobilised ligand | 1 µM | – | remaining binding | 87%
COc1cc(Nc2nc(C)cc(-c3cnn4nc(OC)ccc34)n2)cc(C(F)(F)F)c1 | binding, competition with immobilised ligand | 1 µM | – | remaining binding | 87%
CN1CCN(Cc2ccc(-c3ccc(CO[C@H]4CCC[C@@H]4NC(=O)c4cc(-c5cnn(C)c5)cnc4N)cc3)cc2)CC1 | enzyme activity, inhibitor | 0.1 µM | – | inhibition | 6%
C=CC(=O)N1CCCC(n2c(=O)c3ncccc3n(Cc3ccc(Oc4ccccc4)cc3)c2=O)C1 (stereo not shown) | cell-free assay, competition with immobilised ligand | 1 µM | – | remaining binding | 88%
COCC12C(=O)NC3C4(C(OC)CC1O)C1CC5(O)C(OC)C(O)C(OC(C)=O)(C1C5OC(=O)c1ccccc1)C3(O)C(OC)C24 (stereo not shown) | kinase activity, inhibitor, ProQinase kinase profiling | 25 µM | relative to: control | remaining activity | 107% and 108%
COc1ccc(C(=O)/C=C/c2ccccc2-c2c[nH]c3ccc(C#N)cc23)c(O)c1 | enzyme activity, inhibitor | 20 µM | – | inhibition | 28%
